Measurements gathered from unrelated publications.
Lines come from different studies, so protocols differ. ± marks the error that the study gave.

CC[C@H](C)[C@H](NC(=O)[C@@H]1CCCN1C(=O)[C@@H]1CCCN1C(=O)[C@@H]1CCCN1C(=O)[C@H](C)NC(=O)[C@@H]1CCCN1C(=O)[C@H](CCCNC(=N)N)NC(=O)[C@H](CC(C)C)NC(=O)[C@H](CO)NC(=O)[C@@H]1CCCN1C(=O)[C@H](C)NC(=O)[C@H](CCC(=O)O)NC(=O)[C@H](CCC(=O)O)NC(=O)[C@H](CCCNC(=N)N)NC(=O)[C@H](CCCCN)NC(=O)[C@H](CCCCN)NC(=O)[C@H](CC(=O)O)NC(=O)[C@H](CC(C)C)NC(=O)[C@@H]1CCCN1C(=O)[C@H](CCCNC(=N)N)NC(=O)[C@H](Cc1c[nH]cn1)NC(=O)CN)C(=O)N[C@@H](CO)C(=O)NCC(=O)NCC(=O)NCC(=O)N[C@@H](Cc1ccc(O)cc1)C(=O)N[C@@H](CCCNC(=N)N)C(=O)O
inhibition (neutrophil infiltration; C57BL/6J mice, wild-type, thioglycollate peritonitis, peritoneum; i.v., 80 µM, 4 h, added: thioglycollate i.p.; reference: vehicle): ~30%

Cc1ccc(/C=C/C(=O)O)cc1-c1cc2c(cc1C)C(C)(C)CCC2(C)C
log2 fold change (RNA sequencing, refers to: Angptl4 mRNA; rat, brain; dose not given, 24 h, single dose; reference: vehicle): -0.31

CC[C@H](C)[C@H](NC(=O)[C@H](CCCNC(=N)N)NC(=O)[C@H](CCC(N)=O)NC(=O)[C@H](CC(=O)O)NC(=O)[C@H](CC(C)C)NC(=O)[C@H](CC(C)C)NC(=O)[C@H](CC(N)=O)NC(=O)[C@H](Cc1ccccc1)NC(=O)[C@H](CC(=O)O)NC(=O)[C@@H](NC(=O)[C@@H](NC(=O)[C@H](CC(N)=O)NC(=O)CNC(=O)[C@H](CO)NC(C)=O)C(C)C)[C@@H](C)CC)C(=O)N[C@H](C(=O)N[C@@H](Cc1c[nH]c2ccccc12)C(=O)N[C@@H](CCC(N)=O)C(=O)N[C@@H](CC(N)=O)C(=O)N[C@@H](Cc1c[nH]c2ccccc12)C(=O)N[C@@H](Cc1ccc(O)cc1)C(=O)N[C@@H](C)C(N)=O)[C@@H](C)CC
α4β7+ CCR9− cells (refers to: HA-51 tetramer; antigen-experienced tetramer+ CD4 T cells, healthy adults, HLA-DRB1*0101; dose not given): 34.6%

COc1ccc([N+](=O)[O-])cc1NC(=O)CCC(=O)[O][Zn][O]C(=O)CCC(=O)Nc1cc([N+](=O)[O-])ccc1OC.c1ccncc1
inhibition (DPPH scavenging, absorbance; 500 µg/mL): 71.7%

CC[C@H](C)[C@H](NC(=O)[C@@H](NC(=O)[C@H](CC(=O)O)NC(C)=O)[C@@H](C)O)C(=O)N[C@@H](CCCNC(=N)N)C(=O)N[C@@H](CC(C)C)C(=O)N[C@@H](CC(C)C)C(=O)N[C@@H](Cc1ccccc1)C(=O)N[C@@H](CCC(N)=O)C(=O)N[C@@H](CC(C)C)C(=O)N[C@@H](CCSC)C(=O)N[C@@H](CCCNC(=N)N)C(=O)N1CCC[C@H]1C(=O)N1CCC[C@H]1C(=O)N[C@@H](CC(N)=O)C(=O)N[C@@H](CCSC)C(=O)N[C@H](C(=O)N1CCC[C@H]1C(=O)N[C@@H](C)C(=O)N[C@H](C(=O)N[C@@H](CC(N)=O)C(=O)N[C@@H](C)C(N)=O)C(C)C)[C@@H](C)O
α4β7+ CCR9+ cells (refers to: HA-15 tetramer; antigen-experienced tetramer+ CD4 T cells, healthy adults, HLA-DRB1*0101; dose not given): 27.3%

COc1ccc(C2=Nn3c(N/N=C4/C(=O)Nc5ccc(OC(F)(F)F)cc54)nnc3SC2)cc1
number of blood vessels (angiogenesis; hen egg chorioallantoic membrane; 40 µM; reference: DMSO vehicle): decreased

CCOP(=O)(OCC)OCCCCOC(=O)CC1=C(C)C(=Cc2ccc([S+](C)[O-])cc2)c2ccc(F)cc21 (stereo not shown)
decrease in phosphorylation (refers to: phospho-mTOR; nude mice, orthotopic A549 tumour, tumour; inhalation, dose not given; reference: vehicle): 55%

O=C(O)CCCC(=O)O
inhibition (DPPH radical scavenging; 62.5 µg/mL): 48.8 ± 3.33%

CCCCCCCCCCCCCCCC(=O)N[C@@H](CCC(=O)NCCOCCOCCC(=O)NCCOCCOCCC(=O)NCCCC[C@H](NC(=O)[C@H](CC(=O)O)NC(=O)[C@H](CC(C)C)NC(=O)[C@H](Cc1ccc(O)cc1)NC(=O)[C@H](CCCCN)NC(=O)[C@H](CO)NC(=O)[C@H](Cc1ccc(O)cc1)NC(=O)[C@H](CC(=O)O)NC(=O)[C@H](CO)NC(=O)[C@@H](NC(=O)[C@H](Cc1ccccc1)NC(=O)[C@@H](NC(=O)CNC(=O)[C@H](CCC(N)=O)NC(=O)[C@@H](CO)NC(=O)[C@@H](N)Cc1c[nH]cn1)[C@@H](C)O)[C@@H](C)O)C(=O)N[C@@H](CCCNC(=N)N)C(=O)N[C@@H](CCCNC(=N)N)C(=O)N[C@@H](C)C(=O)N[C@@H](CCC(N)=O)C(=O)N[C@@H](CC(=O)O)C(=O)N[C@@H](Cc1ccccc1)C(=O)N[C@H](C(=O)N[C@@H](CCC(N)=O)C(=O)N[C@@H](Cc1c[nH]c2ccccc12)C(=O)N[C@@H](CC(C)C)C(=O)N[C@@H](CC(C)C)C(=O)N[C@@H](CC(N)=O)C(=O)N[C@H](C(=O)NCC(=O)NCC(=O)N1CCC[C@H]1C(=O)N[C@@H](CO)C(=O)N[C@@H](CO)C(=O)NCC(=O)N[C@@H](C)C(=O)N1CCC[C@H]1C(=O)N1CCC[C@H]1C(=O)N1CCC[C@H]1C(=O)N[C@@H](CO)C(N)=O)[C@@H](C)O)C(C)C)C(=O)O
cytokine levels (refers to: IL-1β, IL-6, TNF-α, IL-4, IL-5, IL-13 mRNA; Schistosoma japonicum-infected mice, liver and serum; dose not given): decreased

Cc1cc(Nc2nc(C[C@@]3(C(=O)O)CCN(Cc4cccc(Cl)c4F)[C@H](C)C3)cc(C)c2F)[nH]n1
tumour growth inhibition (mice, NCI-H69 xenograft; oral, 10 mg/kg once daily): 89%

Repeated from above:
CC[C@H](C)[C@H](NC(=O)[C@@H](NC(=O)[C@H](CC(=O)O)NC(C)=O)[C@@H](C)O)C(=O)N[C@@H](CCCNC(=N)N)C(=O)N[C@@H](CC(C)C)C(=O)N[C@@H](CC(C)C)C(=O)N[C@@H](Cc1ccccc1)C(=O)N[C@@H](CCC(N)=O)C(=O)N[C@@H](CC(C)C)C(=O)N[C@@H](CCSC)C(=O)N[C@@H](CCCNC(=N)N)C(=O)N1CCC[C@H]1C(=O)N1CCC[C@H]1C(=O)N[C@@H](CC(N)=O)C(=O)N[C@@H](CCSC)C(=O)N[C@H](C(=O)N1CCC[C@H]1C(=O)N[C@@H](C)C(=O)N[C@H](C(=O)N[C@@H](CC(N)=O)C(=O)N[C@@H](C)C(N)=O)C(C)C)[C@@H](C)O
α4β7+ CCR9+ cells (refers to: HA-15 tetramer; antigen-experienced tetramer+ CD4 T cells, healthy adults, HLA-DRB1*0101; dose not given): 27.3%

CC[C@H](C)[C@H](NC(=O)[C@H](CCCNC(=N)N)NC(=O)[C@H](CCC(N)=O)NC(=O)[C@H](CC(=O)O)NC(=O)[C@H](CC(C)C)NC(=O)[C@H](CC(C)C)NC(=O)[C@H](CC(N)=O)NC(=O)[C@H](Cc1ccccc1)NC(=O)[C@H](CC(=O)O)NC(=O)[C@@H](NC(=O)[C@@H](NC(=O)[C@H](CC(N)=O)NC(=O)CNC(=O)[C@H](CO)NC(C)=O)C(C)C)[C@@H](C)CC)C(=O)N[C@H](C(=O)N[C@@H](Cc1c[nH]c2ccccc12)C(=O)N[C@@H](CCC(N)=O)C(=O)N[C@@H](CC(N)=O)C(=O)N[C@@H](Cc1c[nH]c2ccccc12)C(=O)N[C@@H](Cc1ccc(O)cc1)C(=O)N[C@@H](C)C(N)=O)[C@@H](C)CC
α4β7+ CCR9− cells (refers to: HA-51 tetramer; antigen-experienced tetramer+ CD4 T cells, healthy adults, HLA-DRB1*0101; dose not given): 34.6%
